Experimental data of several laboratories.
Compare with care: the assays were run in different laboratories. Numbers after ± are the reported error.

Structure (SMILES)	assay	system	setting	scale	measurement	result
NCCCC(=O)OCC(=O)c1cc(F)c(O)c(F)c1.O=C(O)C(F)(F)F	photolysis, measured: rearranged acid appearance	unbuffered water			quantum yield	0.1
CCCC[C@H](NC(C)=O)C(=O)N[C@H]1CC(=O)NCCCC[C@@H](C(=O)N[C@@H](C(=O)N2CCC[C@@H]2C(N)=O)C(C)C)NC(=O)[C@H](Cc2c[nH]c3ccccc23)NC(=O)[C@H](CCCN=C(N)N)NC(=O)[C@@H](Cc2ccc3ccccc3c2)NC(=O)[C@@H]2CCCN2C1=O		healthy dogs, plasma	subcutaneous, 2.25 mg/kg per day, day 1, 30 min post-dose, median		plasma histamine	8.02 ng/mL
COc1cc(C)c(Cc2ccc(O)cc2)cc1[C@@H]1S[C@H](CO)[C@@H](O)[C@H](O)[C@H]1O		Japanese T2DM patients, urine	1 mg luseogliflozin, day 7, once daily	reference: dose	urinary excretion 0-24 h	11.1 ± 1.27%
Cc1ccc(OCC(=O)O)cc1		Sprague-Dawley rat Crl:CD(SD), female, plasma	oral, 30 mg/kg/day of parent drug, day 90, 90-day repeated dosing		Tmax	3 h
NCCCC(=O)OCC(=O)c1ccc(O)cc1F.O=C(O)C(F)(F)F	photolysis at 300 nm	ammonium acetate buffered acetonitrile-water	pH 5.0, 0.01 mol/L buffer		quantum yield of disappearance	0.24
CCCC(CCC)NC(=O)c1ccc(OS(=O)(=O)O)c(OC)c1		male Sprague-Dawley rats, plasma	oral, 50 mg/kg of parent drug	reference: 50 over 20 mg/kg dose	Cmax ratio	2.19
COc1ccc(/C=C/c2ccc(-c3ccc(C)cn3)nc2)cc1		toluene	together with: quinine bisulfate reference		fluorescence quantum yield	0.54
CCCC[C@H](NC(=O)CNC(=O)CNC(=O)CN1CCN(CC(=O)O)CCN(CC(=O)O)CC1)C(=O)N[C@H]1CC(=O)NCCCC[C@@H](C(N)=O)NC(=O)[C@H](Cc2c[nH]c3ccccc23)NC(=O)[C@H](CCCNC(=N)N)NC(=O)[C@@H](Cc2ccccc2)NC(=O)[C@H](Cc2c[nH]cn2)NC1=O [gallium-67 labelled]		C57 mice, female, B16/F1 melanoma, tumour over blood	intravenous, 0.037 MBq, 24 h		tumour to tissue uptake ratio	14.5
Cn1c(=O)oc2ccc(-c3ccc(CC(C#N)NC(=O)C4CNCCCO4)c(F)c3)cc21 (stereo not shown)	measured: blood bilirubin increased	human	80 mg single dose, fasted		subjects with TEAE	0%
C/C(=N\OCCN(C)Cc1ccccc1)c1ccc(C(F)(F)F)cc1		liver microsomes		reference: human over mouse	metabolic stability ratio	~3 fold
C(=NNC1=NCc2ccccc2-c2c1[nH]c1ccccc21)c1ccccn1	UV-vis titration	DMSO-water 30 to 70% w/w	298 K, ionic strength 0.10 M KCl		pKa2	5.03 ± 0.01
NC12CNCCNCC(NCc3ccc(CNC(=O)CCCC(=O)NCc4ccc(-c5nncnn5)cc4)cc3)(CNCCNC1)CNCCNC2.[64Cu+2]	OLINDA dosimetry	heart wall	pretargeting, 24 h interval		absorbed dose	0.0429 rad/mCi
CCCC[C@H](NC(=O)CNC(=O)CNC(=O)CN1CCN(CC(=O)O)CCN(CC(=O)O)CC1)C(=O)N[C@H]1CC(=O)NCCCC[C@@H](C(N)=O)NC(=O)[C@H](Cc2c[nH]c3ccccc23)NC(=O)[C@H](CCCNC(=N)N)NC(=O)[C@@H](Cc2ccccc2)NC(=O)[C@H](Cc2c[nH]cn2)NC1=O [copper-64 labelled]		female C57 mouse, B16/F1 melanoma, spleen	intravenous, 0.037 MBq, 24 h		tissue uptake	0.15 ± 0.06 %ID/g
CN1CCC[C@]1(C)/C=C/S(=O)(=O)NC(=O)Nc1c2c(cc3c1CCC3)CCC2		human, urine	oral, 100 mg single dose		percent of dose in urine	76.6%
CC(C)[C@H](NC(=O)CNC(=O)[C@H](CCC(N)=O)NC(=O)[C@H](C)N)C(=O)O	LC-MS/MS	human, male, plasma	intravenous, 30 mg/kg three times daily, day 3, first dose, 10 min infusion, geometric mean		clearance	867 mL/min/kg
CC(C)[C@H](NC(=O)[C@@H]1CCCN1C(=O)[C@H](CCCNC(=N)N)NC(=O)[C@H](CS)NC(=O)[C@H](Cc1c[nH]c2ccccc12)NC(=O)[C@H](CCCNC(=N)N)NC(=O)[C@@H](Cc1ccccc1)NC(=O)[C@H](Cc1c[nH]cn1)NC(=O)[C@H](CCC(=O)O)NC(=O)[C@H](CS)NC(=O)[C@H](CS)NC(=O)[C@@H]1CC(=O)N[C@@H](CCCNC(=N)N)C(=O)NCC(=O)N[C@@H](CC(=O)O)C(=O)N[C@H](Cc2ccc(O)cc2)C(=O)N1)C(N)=O [technetium-99m labelled]		C57 mouse, female, B16/F1 melanoma	intravenous, 0.037 MBq, 0.5 h	reference: tumour over blood	tumour to tissue ratio	1.55
C#CCOc1ccc(/C=C2\SC(=O)N(CC(=O)NCc3ccccc3)C2=O)cc1	inverse Kirkwood-Buff integrals	binary solvent mixture	concentration not given, 298.15 K, mole fraction x1 0.70		correlation volume	4950 cm³/mol
Oc1ccc2ccccc2c1/N=N/c1ccc(/N=N/c2ccccc2)cc1		rat whole blood	5.0 µg/L, 30 days, -20 °C, long-term storage		stability deviation	1.3%
CCc1cc(Nc2nc(-c3ccc(-n4cnc(C)c4)c(F)c3)cs2)c(C)cc1C		human, both sexes, plasma	oral, 400 mg once daily, day 14, multiple dose, geometric mean		terminal elimination rate constant	1.81e-05 s⁻¹
CN(O)C(=O)CCC(=O)NCCCN(CCCCN(CCCNC(=O)CCC(=O)N(C)O)C(=O)CCC(=O)N(C)O)C(=O)CCC(=O)N(C)O.[89Zr]		aqueous solution	7 d, pH 7.2, 37 °C, transmetalation, together with: FeCl3 10-fold excess		intact compound remaining	97%

Structure (SMILES)	assay	system	setting	scale	measurement	result
O=C(O)[C@@H]1C[C@@H](O)CN1C(=O)[C@@H]1CCCN1	potentiometric titration		37 °C, MA3 complex, together with: Fe(III)		log beta	31.3
O=C(CCCCC[N+]#[C][99Tc-5]([C]#[N+]CCCCCC(=O)N[C@H]1C(O)O[C@H](CO)[C@@H](O)[C@@H]1O)([C]#[N+]CCCCCC(=O)N[C@H]1C(O)O[C@H](CO)[C@@H](O)[C@@H]1O)([C]#[N+]CCCCCC(=O)N[C@H]1C(O)O[C@H](CO)[C@@H](O)[C@@H]1O)([C]#[N+]CCCCCC(=O)N[C@H]1C(O)O[C@H](CO)[C@@H](O)[C@@H]1O)[C]#[N+]CCCCCC(=O)N[C@H]1C(O)O[C@H](CO)[C@@H](O)[C@@H]1O)N[C@H]1C(O)O[C@H](CO)[C@@H](O)[C@@H]1O (stereo partly shown)	biodistribution	BALB/c nude mouse U87 MG xenograft	2 h	reference: tumour over blood	tumour/blood ratio	17.2 ± 7.4
CN1C(=O)[C@@H](Cc2ccc(O)c(I)c2)NC(=O)CNC(=O)[C@H](Cc2ccc3ccccc3c2)NC(=O)[C@H](CCCNC(=N)N)NC(=O)[C@H]1CCCNC(=O)c1ccc(CNC(=O)CN2CCN(CC(=O)O)CCN(CC(=O)O)CCN(CC(=O)O)CC2)cc1 [lutetium-177 labelled]	SPECT/CT and planar imaging	human, spleen			absorbed organ dose	0.81 mGy/MBq
CC[C@@H](C)N([11CH3])C(=O)c1nc(-c2ccc(Cl)cc2)c2ccccc2n1	ultrafiltration	rhesus monkey, plasma	baseline scan		plasma free fraction	0.048
Cc1[nH]c(/C=C2\C(=O)Nc3ccc(F)cc32)c(C)c1NC(=O)CCN1CCN(C)CC1		dog plasma	40 ng/mL, 24 h at room temperature after processing, 25 °C		accuracy deviation	-0.65%
N#Cc1ccc(-c2cc(=O)c3ccc4[nH]c(C(F)(F)F)nc4c3o2)cc1		liver microsomes			metabolic stability	stable
CCC(=O)N[C@@H](C)C(=O)OCC(=O)N[C@@H](C)C(=O)O		water	pH 6, 65 °C		depolymerization half-life	29.4 h
CC(C)C[C@@H](NC(=O)[C@H](NC(=O)[C@H]1CCCN1)[C@H](C)O)C(=O)N[C@H](Cc1c[nH]cn1)C(=O)N[C@@H](C(=O)N[C@H](Cc1c[nH]cn1)C(=O)N[C@H](CC(N)=O)C(=O)N[C@H](CCCNC(=N)N)C(=O)N[C@H](CCCNC(=N)N)C(=O)N[C@H](CCCNC(=N)N)C(=O)N[C@H](CCCNC(=N)N)C(=O)N[C@H](CCCNC(=N)N)C(N)=O)[C@H](C)O		beagle dog, plasma	intravenous, 3 mg/kg, single dose		half-life	71 h
CC[C@H](C)[C@H](NC(=O)[C@H](CC(C)C)NC(=O)[C@H](Cc1c[nH]c2ccccc12)NC(=O)[C@H](C)NC(=O)[C@@H](NC(=O)[C@H](Cc1ccccc1)NC(=O)[C@H](CC(=O)O)NC(=O)[C@H](CCCNC(=N)N)NC(=O)[C@H](C)NC(=O)[C@H](C)NC(=O)[C@H](CC(C)C)NC(=O)[C@H](C)NC(=O)[C@H](CC(=O)O)NC(=O)[C@H](CC(C)C)NC(=O)[C@@H](NC(=O)[C@@H](NC(=O)[C@H](C)NC(=O)[C@H](CC(C)C)NC(=O)[C@H](CCC(=O)O)NC(=O)[C@H](CO)NC(=O)[C@H](CO)NC(=O)[C@H](Cc1ccccc1)NC(=O)[C@@H](NC(=O)CNC(=O)[C@H](CCC(=O)O)NC(=O)CNC(=O)[C@@H](N)Cc1cnc[nH]1)[C@@H](C)O)[C@@H](C)O)[C@@H](C)CC)[C@@H](C)CC)C(=O)N[C@@H](C)C(=O)N[C@H](C(=O)N[C@@H](CCCCN)C(=O)N[C@H](C(=O)N[C@H](C(=O)N[C@@H](CC(=O)O)C(=O)N[C@@H](CCCCN)C(=O)N[C@@H](CCCCN)C(=O)N[C@@H](CCCCN)C(=O)N[C@@H](CCCCN)C(=O)N[C@@H](CCCCN)C(=O)N[C@@H](CCCCN)C(N)=O)[C@@H](C)O)[C@@H](C)CC)[C@@H](C)O		healthy humans, plasma	subcutaneous, 10 mg once weekly		effective half-life	88.3 h
CC(C)c1cnc(-c2cc(Cl)ccc2F)cc1Nc1ccncc1C(=O)NC(CO)CO	measured: any event, worst grade	human patients	oral, dose not given, grade 3		patients with related SAE	9.5%
CCCC[C@H](NC(C)=O)C(=O)N[C@H]1CC(=O)NCCCC[C@@H](C(=O)N[C@@H](C(=O)N2CCC[C@@H]2C(N)=O)C(C)C)NC(=O)[C@H](Cc2c[nH]c3ccccc23)NC(=O)[C@H](CCCN=C(N)N)NC(=O)[C@@H](Cc2ccc3ccccc3c2)NC(=O)[C@@H]2CCCN2C1=O		dog	day 1, start of treatment		haemoglobin	14.5 g/dL
CC/C=C\C/C=C\C/C=C\C/C=C\C/C=C\CCCCOC(CC)C(=O)O (stereo not shown)	[14C] label	Wistar rat, muscle	dose not given, 3 day		radioactivity concentration	not detected
NCCCC(=O)OCC(=O)c1c(F)cc(O)cc1F.O=C(O)C(F)(F)F	photolysis, measured: disappearance of compound	unbuffered water			quantum yield	0.16
N=C(N)NCCC[C@@H]1NC(=O)[C@H](Cc2c[nH]c3ccccc23)NC(=O)[C@@H](CC2CCCCC2)NC(=O)[C@@H]2CCCN2C(=O)[C@@H](NC(=O)CCc2ccccc2)CCCNC1=O		C57BL/6J mice, plasma	subcutaneous, 1 mg/kg, two-compartment model		distribution rate constant k12	< 0.001 h⁻¹
[11CH3]c1ccc2nc(C3CCC3)n(-c3ccc4[nH]ncc4c3)c2n1		human female, thyroid			absorbed radiation dose	2.5 µSv/MBq
CCCCN1C(=O)c2cccc3c(NCCN4CCOCC4)ccc(c23)C1=O		aqueous medium	pH 6		fluorescence brightness	3520 M⁻¹ cm⁻¹
CC1=CC(C)=[N+]2C1=Cc1ccc(CCC(=O)N3CCN(C(=O)c4cc(Cc5n[nH]c(=O)c6ccccc56)ccc4F)CC3)n1[B-]2(F)F	ex vivo imaging	athymic nude NU/J mice, subcutaneous xenograft, U87 tumour	intravenous, 2.5 mg/kg, 90 min		mean fluorescence	20.5 AU/pixel
CC(C)(O)c1ncc([S@](N)(=O)=NC(=O)Nc2c3c(cc4c2CCC4)CCC3)s1		healthy human	oral, 10 mg once daily, day 1, capsule formulation, geometric mean		AUC(0-tau)	8630 ng·h/mL
CCC1(CC)C[C@@H](NC(=O)Nc2cccc3c(C)nccc23)c2cc(F)ccc2O1		rat	intraperitoneal, 3 mg/kg, ambient temperature 17 °C	reference: vehicle	decrease in deep body temperature	~1 °C
COc1cc(NC(C)=O)c2c(c1O)-c1c(OC)c(OC)cc3c1C(C2)N(C)CC3 (stereo not shown)		rat brain homogenate	0.5 µg/mL, time not given, three freeze-thaw cycles		remaining compound	102 ± 2.9%

A few entries again:
Structure (SMILES)	assay	system	setting	scale	measurement	result
CCCC[C@H](NC(C)=O)C(=O)N[C@H]1CC(=O)NCCCC[C@@H](C(=O)N[C@@H](C(=O)N2CCC[C@@H]2C(N)=O)C(C)C)NC(=O)[C@H](Cc2c[nH]c3ccccc23)NC(=O)[C@H](CCCN=C(N)N)NC(=O)[C@@H](Cc2ccc3ccccc3c2)NC(=O)[C@@H]2CCCN2C1=O		healthy dogs, plasma	subcutaneous, 2.25 mg/kg per day, day 1, 30 min post-dose, median		plasma histamine	8.02 ng/mL
COc1cc(C)c(Cc2ccc(O)cc2)cc1[C@@H]1S[C@H](CO)[C@@H](O)[C@H](O)[C@H]1O		Japanese T2DM patients, urine	1 mg luseogliflozin, day 7, once daily	reference: dose	urinary excretion 0-24 h	11.1 ± 1.27%
Cc1ccc(OCC(=O)O)cc1		Sprague-Dawley rat Crl:CD(SD), female, plasma	oral, 30 mg/kg/day of parent drug, day 90, 90-day repeated dosing		Tmax	3 h
NCCCC(=O)OCC(=O)c1ccc(O)cc1F.O=C(O)C(F)(F)F	photolysis at 300 nm	ammonium acetate buffered acetonitrile-water	pH 5.0, 0.01 mol/L buffer		quantum yield of disappearance	0.24
